Measurements collected from several papers.
Compare with care: the assays were run in different laboratories. Values joined by “and” are separate records of one study, mostly repeats; a detail may differ.
Sequence of UniProt P08183 (whole entry, looked up): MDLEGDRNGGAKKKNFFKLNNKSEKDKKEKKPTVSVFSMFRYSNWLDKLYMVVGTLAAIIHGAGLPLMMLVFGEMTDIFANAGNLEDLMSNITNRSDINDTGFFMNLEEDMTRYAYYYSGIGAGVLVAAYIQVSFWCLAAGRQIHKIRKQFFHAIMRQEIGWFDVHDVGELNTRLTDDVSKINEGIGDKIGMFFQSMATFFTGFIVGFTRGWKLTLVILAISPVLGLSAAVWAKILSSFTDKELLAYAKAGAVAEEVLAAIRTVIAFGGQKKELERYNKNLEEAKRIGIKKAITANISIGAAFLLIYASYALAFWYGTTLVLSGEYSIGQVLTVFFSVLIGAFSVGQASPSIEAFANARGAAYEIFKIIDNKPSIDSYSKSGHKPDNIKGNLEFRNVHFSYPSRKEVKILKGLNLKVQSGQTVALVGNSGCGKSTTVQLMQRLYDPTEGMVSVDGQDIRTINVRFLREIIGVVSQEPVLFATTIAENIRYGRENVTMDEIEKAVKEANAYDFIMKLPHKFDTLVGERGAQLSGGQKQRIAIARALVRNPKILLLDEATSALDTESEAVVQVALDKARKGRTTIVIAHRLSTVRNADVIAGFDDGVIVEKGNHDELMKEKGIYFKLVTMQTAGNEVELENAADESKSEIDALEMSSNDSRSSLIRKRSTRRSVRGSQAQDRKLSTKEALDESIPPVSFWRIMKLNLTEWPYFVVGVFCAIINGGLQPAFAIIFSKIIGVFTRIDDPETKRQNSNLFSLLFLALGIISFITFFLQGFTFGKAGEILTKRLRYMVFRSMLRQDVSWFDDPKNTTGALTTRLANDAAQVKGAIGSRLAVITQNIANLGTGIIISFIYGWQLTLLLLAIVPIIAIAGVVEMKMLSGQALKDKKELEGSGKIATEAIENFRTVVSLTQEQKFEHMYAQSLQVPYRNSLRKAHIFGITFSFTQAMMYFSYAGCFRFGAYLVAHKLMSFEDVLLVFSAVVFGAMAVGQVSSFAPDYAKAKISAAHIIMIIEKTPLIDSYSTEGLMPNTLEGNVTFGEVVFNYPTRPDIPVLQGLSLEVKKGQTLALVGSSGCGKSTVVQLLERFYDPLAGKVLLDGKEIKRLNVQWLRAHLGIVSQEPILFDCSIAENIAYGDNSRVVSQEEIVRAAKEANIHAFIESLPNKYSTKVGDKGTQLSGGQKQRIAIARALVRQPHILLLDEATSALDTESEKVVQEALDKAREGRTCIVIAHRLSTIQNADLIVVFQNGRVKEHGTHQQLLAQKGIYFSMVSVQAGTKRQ

| SMILES | tested on | assay | test system | conditions | how to read | quantity | value |
| --- | --- | --- | --- | --- | --- | --- | --- |
| COc1cccc(-c2n[nH]c(SCc3ccccn3)n2)c1OC | Salmonella typhimurium | Ames test, plate incorporation | TA100 | 2.0 mg/plate, without S9 | – | revertant colonies per plate | 107 |
| Cc1cc(C(=O)NC(C)(C)COc2cccc3c2C(N)=NS(=O)(=O)N3)cc(C)n1 | Salmonella typhimurium | Ames test, initial | TA100 | 15.0 µg/plate, with: rat liver S9 | relative to: solvent control | revertant ratio | 1.1 |
| CC1(C)C(/C=C(\Cl)C(F)(F)F)C1C(=O)OC(C#N)c1cccc(Oc2ccccc2)c1 (stereo not drawn) | human microsomal CES2 | IVIVE from expressed enzymes | human, liver, in vivo scaled | age-specific | – | enzyme contribution to CLint | 0.02% |
| CO[C@H]1C[C@@H]2CC[C@@H](C)[C@@](O)(O2)C(=O)C(=O)N2CCCC[C@H]2C(=O)O[C@H]([C@H](C)C[C@@H]2CC[C@@H](OC(=O)NCCOCCOCCOCCOCCOCCOCCOCCOCCC(=O)N3CCc4cc(Cn5nc(-c6ccc7oc(N)nc7c6)c6c(N)ncnc65)ccc4C3)[C@H](OC)C2)C[C@@H](O)[C@H](C)/C=C(\C)[C@@H](O)[C@@H](OC)C(=O)[C@H](C)C[C@H](C)/C=C/C=C/C=C/1C | – | – | patients with advanced solid tumours | intravenous, 16 mg weekly, grade 3 or higher | – | headache incidence | 0% |
| [Cl-].[Cl-].[Pt+2].[Ru+2].c1ccc(-c2nc3cc4ccccc4cc3nc2-c2ccccn2)nc1.c1cnc2c(c1)ccc1cccnc12.c1cnc2c(c1)ccc1cccnc12 | Danio rerio | – | embryos | 90 µM, 48 h | – | hatching rate | 0% |
| O=[N+]([O-])c1ccc(N2CCC(NCCC(O)c3ccc(F)c4ccccc34)CC2)c(C(F)(F)F)c1 (stereo not drawn) | Salmonella typhimurium | SOS/umu test | TA1535/pSK1002 | 0.031 mg/mL, 4 h, without S9, full range | – | survival | 56.3% |
| CNCCC(Oc1ccccc1OC)c1ccccc1 (stereo not drawn) | Plasmodium falciparum | – | 7G8 | – | – | IC50 | 2510 nM |
| Nc1ncnc2c([C@@H]3N[C@H](CO)[C@@H](O)[C@H]3O)c[nH]c12 | HeLa | – | – | 100 µM | – | cell number | 4560 and 3670 |
| CC(=O)N1CCC(C(=O)N2CCN3C(=O)c4cc(-c5ccccc5)ccc4NC(=O)C3C2)CC1 (stereo not drawn) | Escherichia coli | – | WP2 uvrA | 15.8 µg/plate, with rat liver S9 | – | revertants per plate | 31 |
| CCCC[C@H](NC(C)=O)C(=O)N[C@@H](CO)C(=O)N[C@H](C(=O)N1CCC[C@H]1C(=O)N[C@@H](C)C(=O)N[C@@H](CCCNC(=N)N)C(=O)N[C@@H](CCCNC(=N)N)C(=O)N[C@@H](CCCNC(=N)N)C(=O)N[C@@H](CC(C)C)C(=O)N[C@@H](CCCC)C(=O)N[C@@H](CCCNC(=N)N)C(=O)N[C@@H](CC(=O)O)C(=O)N[C@@H](Cc1ccccc1)C(=O)N[C@@H](CCCCN)C(=O)N[C@@H](CCCNC(=N)N)C(=O)N[C@@H](CC(C)C)C(=O)N[C@@H](CCC(N)=O)C(N)=O)[C@@H](C)O | proteinase K | LC-MS | – | 25 µM, 102.4 min, pH 7.4 | – | remaining peptide | 1.2% |
| CC1(C)[C@H](C=C(Cl)Cl)[C@H]1C(=O)OCc1cccc(Oc2ccccc2)c1 | human cytosolic CES1 | IVIVE from expressed enzymes | human, 6 months old, expressed human CES1 | 0.1 µM | relative to: total hepatic CLint in vivo | relative enzyme contribution | 30% |
| O=c1ccc2ccccc2o1 | HepG2 | measured: cell count | – | concentration not given, 1 h, SRXN1 Nrf2 oxidative stress panel | – | probability of response | 0% |
| CC(C)CC(=O)OC[C@H]1O[C@@](C#N)(c2ccc3c(N)ncnn23)[C@H](O)[C@@H]1O | ABCB1 (Homo sapiens, UniProt P08183) | – | Caco-2 | 90 µM, 2 h | – | Papp A to B | 0.208 ×10⁻⁶ cm/s |
| CCCCN1[C@@H]2CC[C@H]1C[C@@H](OC(c1ccc(F)cc1)c1ccc(F)cc1)C2 | Plasmodium falciparum | – | W2 | – | – | IC50 | 398 nM |
| OCc1ncc2n1-c1ccc(Cl)cc1C(c1ccccc1F)=NC2 | CYP3A4 (human) | – | human, plasma | oral, 2 mg midazolam, Day 1, with: single dose encorafenib and binimetinib | relative to: 1-hydroxymidazolam over midazolam | metabolite to parent Cmax ratio | 4.36 |
| O=[N+]([O-])c1ccc(NC2CCNCC2)c(C(F)(F)F)c1 | Salmonella typhimurium | SOS/umu test | TA1535/pSK1002 | 0.25 mg/mL, 4 h, without S9, full range | – | survival | 75% |
| COc1cc2c(Oc3ccc4[nH]c(C)cc4c3F)ccnc2cc1OCC1(N)CC1 | – | – | paediatric recurrent refractory sarcoma | 10 mg | – | grade 3 sinus bradycardia | 0% |
| O=C1c2c(O)c(=O)ccn2N([C@@H]2c3ccccc3SCc3c2ccc(F)c3F)[C@@H]2COCCN12 | – | – | BALB/c mice, plasma | oral, 5 mg/kg baloxavir marboxil, 0.5 h | – | plasma concentration | 45.7 ng/mL |

Repeated from above:
| SMILES | tested on | assay | test system | conditions | how to read | quantity | value |
| --- | --- | --- | --- | --- | --- | --- | --- |
| CC1(C)C(/C=C(\Cl)C(F)(F)F)C1C(=O)OC(C#N)c1cccc(Oc2ccccc2)c1 (stereo not drawn) | human microsomal CES2 | IVIVE from expressed enzymes | human, liver, in vivo scaled | age-specific | – | enzyme contribution to CLint | 0.02% |
| CC1(C)[C@H](C=C(Cl)Cl)[C@H]1C(=O)OCc1cccc(Oc2ccccc2)c1 | human cytosolic CES1 | IVIVE from expressed enzymes | human, 6 months old, expressed human CES1 | 0.1 µM | relative to: total hepatic CLint in vivo | relative enzyme contribution | 30% |
